Values quoted from earlier work, collected from citations in different studies.
Protocols differ between the studies behind these lines. “And” joins repeats or separate records; there may be more than shown.
CA12: Carbonic anhydrase 12 (CA12, Homo sapiens, UniProt O43570)
Sequence of UniProt O43570 (whole entry, looked up): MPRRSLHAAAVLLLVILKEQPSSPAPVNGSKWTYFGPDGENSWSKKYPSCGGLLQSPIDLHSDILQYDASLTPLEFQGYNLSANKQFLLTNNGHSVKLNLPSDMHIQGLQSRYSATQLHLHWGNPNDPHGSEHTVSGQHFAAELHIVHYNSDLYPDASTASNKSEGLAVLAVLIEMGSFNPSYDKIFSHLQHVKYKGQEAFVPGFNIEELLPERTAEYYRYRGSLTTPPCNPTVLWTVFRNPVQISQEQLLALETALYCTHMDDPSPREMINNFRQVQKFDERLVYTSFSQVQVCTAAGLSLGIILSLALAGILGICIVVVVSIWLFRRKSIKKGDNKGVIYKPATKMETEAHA
CA2: Carbonic anhydrase 2 (CA2, Homo sapiens, UniProt P00918)
Sequence of UniProt P13569 (whole entry, looked up): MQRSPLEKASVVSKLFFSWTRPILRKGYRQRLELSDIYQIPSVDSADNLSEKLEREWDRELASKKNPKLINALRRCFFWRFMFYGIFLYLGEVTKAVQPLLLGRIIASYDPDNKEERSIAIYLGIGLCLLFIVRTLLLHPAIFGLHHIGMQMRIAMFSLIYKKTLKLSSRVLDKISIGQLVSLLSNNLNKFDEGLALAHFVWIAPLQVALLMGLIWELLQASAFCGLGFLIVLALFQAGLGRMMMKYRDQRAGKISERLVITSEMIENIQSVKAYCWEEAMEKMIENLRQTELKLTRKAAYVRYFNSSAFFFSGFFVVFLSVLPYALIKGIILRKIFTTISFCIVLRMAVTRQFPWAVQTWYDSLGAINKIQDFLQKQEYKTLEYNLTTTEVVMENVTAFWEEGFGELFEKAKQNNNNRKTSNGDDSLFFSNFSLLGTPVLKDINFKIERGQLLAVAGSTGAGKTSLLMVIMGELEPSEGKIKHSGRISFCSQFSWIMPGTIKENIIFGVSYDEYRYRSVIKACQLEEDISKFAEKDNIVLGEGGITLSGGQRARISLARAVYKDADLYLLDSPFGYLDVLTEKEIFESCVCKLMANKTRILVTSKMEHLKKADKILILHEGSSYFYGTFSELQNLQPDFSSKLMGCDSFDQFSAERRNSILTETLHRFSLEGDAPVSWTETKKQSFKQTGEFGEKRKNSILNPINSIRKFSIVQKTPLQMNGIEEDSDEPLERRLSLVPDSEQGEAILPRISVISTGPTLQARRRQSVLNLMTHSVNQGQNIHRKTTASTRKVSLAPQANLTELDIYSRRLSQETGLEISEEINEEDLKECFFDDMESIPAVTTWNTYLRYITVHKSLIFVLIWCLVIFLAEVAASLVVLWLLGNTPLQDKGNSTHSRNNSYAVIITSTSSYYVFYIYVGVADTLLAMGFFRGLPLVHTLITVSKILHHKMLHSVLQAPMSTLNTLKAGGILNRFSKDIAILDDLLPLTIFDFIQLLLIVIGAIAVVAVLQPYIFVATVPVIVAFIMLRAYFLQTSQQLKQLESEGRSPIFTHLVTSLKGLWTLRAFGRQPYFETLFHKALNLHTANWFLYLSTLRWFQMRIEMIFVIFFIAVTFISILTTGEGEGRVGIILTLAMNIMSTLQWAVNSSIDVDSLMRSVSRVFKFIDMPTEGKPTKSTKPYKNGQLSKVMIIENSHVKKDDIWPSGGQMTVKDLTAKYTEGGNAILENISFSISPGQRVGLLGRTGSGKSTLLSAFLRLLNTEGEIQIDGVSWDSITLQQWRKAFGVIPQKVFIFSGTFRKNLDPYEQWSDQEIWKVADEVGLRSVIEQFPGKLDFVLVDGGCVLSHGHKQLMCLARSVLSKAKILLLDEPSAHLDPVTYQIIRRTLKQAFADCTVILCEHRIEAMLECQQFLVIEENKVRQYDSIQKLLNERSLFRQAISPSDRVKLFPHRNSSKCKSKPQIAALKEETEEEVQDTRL
Sequence of UniProt Q05097 (whole entry, looked up): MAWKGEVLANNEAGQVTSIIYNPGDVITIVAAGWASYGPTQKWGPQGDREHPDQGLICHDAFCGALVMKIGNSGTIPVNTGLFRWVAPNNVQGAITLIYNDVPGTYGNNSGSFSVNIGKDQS
Sequence of UniProt Q8CJH3 (whole entry, looked up): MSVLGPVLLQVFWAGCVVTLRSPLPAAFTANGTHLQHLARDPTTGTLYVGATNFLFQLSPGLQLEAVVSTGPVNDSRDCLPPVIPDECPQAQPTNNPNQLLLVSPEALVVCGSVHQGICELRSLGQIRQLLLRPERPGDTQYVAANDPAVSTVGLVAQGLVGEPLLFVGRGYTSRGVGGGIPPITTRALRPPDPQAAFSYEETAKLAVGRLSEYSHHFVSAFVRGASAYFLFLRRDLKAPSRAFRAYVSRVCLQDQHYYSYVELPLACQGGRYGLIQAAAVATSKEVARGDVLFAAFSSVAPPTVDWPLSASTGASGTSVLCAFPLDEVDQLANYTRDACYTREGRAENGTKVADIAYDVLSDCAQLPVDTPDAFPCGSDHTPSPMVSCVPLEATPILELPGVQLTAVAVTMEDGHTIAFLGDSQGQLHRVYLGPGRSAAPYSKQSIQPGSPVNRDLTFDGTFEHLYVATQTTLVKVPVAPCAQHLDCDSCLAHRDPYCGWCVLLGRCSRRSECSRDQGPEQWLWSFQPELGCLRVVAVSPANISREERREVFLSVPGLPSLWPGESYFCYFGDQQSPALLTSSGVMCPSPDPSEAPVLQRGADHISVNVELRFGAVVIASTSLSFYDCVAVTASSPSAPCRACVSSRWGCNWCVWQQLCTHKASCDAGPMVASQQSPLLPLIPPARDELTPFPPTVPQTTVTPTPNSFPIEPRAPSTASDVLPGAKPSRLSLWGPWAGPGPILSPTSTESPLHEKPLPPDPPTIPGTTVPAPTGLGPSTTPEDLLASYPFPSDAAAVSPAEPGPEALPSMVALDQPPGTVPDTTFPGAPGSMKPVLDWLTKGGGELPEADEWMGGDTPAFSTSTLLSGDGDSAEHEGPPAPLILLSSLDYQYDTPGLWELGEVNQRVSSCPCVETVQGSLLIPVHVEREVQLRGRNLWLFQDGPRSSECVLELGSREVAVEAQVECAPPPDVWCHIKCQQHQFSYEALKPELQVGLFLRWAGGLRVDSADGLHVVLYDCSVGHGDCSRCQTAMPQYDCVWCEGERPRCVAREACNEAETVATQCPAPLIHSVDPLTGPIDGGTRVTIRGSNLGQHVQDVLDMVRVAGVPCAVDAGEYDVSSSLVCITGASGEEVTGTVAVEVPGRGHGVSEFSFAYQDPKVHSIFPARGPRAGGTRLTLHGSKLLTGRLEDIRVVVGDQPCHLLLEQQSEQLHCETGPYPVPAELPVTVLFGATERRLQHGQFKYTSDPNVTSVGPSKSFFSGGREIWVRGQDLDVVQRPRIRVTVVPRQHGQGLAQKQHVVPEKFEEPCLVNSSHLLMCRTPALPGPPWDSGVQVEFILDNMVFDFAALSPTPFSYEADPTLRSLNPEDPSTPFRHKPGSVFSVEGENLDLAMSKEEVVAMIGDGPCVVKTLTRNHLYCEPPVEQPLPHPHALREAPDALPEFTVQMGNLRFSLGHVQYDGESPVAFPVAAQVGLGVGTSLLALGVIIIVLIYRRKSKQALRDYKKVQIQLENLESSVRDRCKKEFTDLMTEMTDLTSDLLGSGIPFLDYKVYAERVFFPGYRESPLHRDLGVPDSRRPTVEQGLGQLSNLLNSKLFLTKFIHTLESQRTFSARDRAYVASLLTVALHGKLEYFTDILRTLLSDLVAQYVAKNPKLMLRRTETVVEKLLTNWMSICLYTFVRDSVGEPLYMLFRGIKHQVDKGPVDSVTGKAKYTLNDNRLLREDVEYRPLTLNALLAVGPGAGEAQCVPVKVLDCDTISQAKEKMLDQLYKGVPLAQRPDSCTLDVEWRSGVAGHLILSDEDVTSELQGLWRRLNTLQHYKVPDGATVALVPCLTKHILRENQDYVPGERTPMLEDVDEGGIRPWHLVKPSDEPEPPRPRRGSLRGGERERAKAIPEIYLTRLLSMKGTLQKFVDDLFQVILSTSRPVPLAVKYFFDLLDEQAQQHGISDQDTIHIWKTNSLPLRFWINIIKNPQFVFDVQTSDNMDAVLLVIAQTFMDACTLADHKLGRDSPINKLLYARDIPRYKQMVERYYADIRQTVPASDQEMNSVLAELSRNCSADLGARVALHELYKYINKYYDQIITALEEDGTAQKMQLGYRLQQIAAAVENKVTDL
Sequence of UniProt P51449 (whole entry, looked up): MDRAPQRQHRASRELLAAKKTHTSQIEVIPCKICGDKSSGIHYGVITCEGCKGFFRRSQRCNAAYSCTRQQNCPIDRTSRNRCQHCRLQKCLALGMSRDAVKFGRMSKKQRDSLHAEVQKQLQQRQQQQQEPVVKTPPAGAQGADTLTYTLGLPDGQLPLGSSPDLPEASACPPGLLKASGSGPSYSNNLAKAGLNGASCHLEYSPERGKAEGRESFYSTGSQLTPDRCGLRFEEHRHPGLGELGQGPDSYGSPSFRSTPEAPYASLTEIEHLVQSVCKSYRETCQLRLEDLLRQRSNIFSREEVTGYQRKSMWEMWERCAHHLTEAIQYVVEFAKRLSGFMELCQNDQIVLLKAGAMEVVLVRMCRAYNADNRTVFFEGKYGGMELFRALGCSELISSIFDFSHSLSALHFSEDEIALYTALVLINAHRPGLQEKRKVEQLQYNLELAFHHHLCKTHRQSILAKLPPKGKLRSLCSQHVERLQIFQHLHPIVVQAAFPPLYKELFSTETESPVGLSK
Sequence of UniProt P21796 (whole entry, looked up): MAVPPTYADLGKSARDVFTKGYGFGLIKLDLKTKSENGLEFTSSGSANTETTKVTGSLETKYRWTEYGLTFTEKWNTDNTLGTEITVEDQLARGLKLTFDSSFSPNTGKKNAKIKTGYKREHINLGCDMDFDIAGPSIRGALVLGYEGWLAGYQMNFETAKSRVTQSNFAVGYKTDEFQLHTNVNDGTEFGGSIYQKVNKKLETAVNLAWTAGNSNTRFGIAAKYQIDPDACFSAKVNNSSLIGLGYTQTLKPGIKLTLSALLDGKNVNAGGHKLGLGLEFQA

The Kd of `C[C@@H](O)[C@H](NC(=O)[C@@H]1CSSC[C@H](NC(=O)[C@@H](Cc2ccccc2)NC(=O)CN2CCCN3CCN(CCCN(CC(=O)O)CC3)CC2)C(=O)N[C@@H](Cc2ccc(O)cc2)C(=O)N[C@H](Cc2c[nH]c3ccccc23)C(=O)N[C@@H](CCCCN)C(=O)N[C@@H]([C@@H](C)O)C(=O)N1)C(=O)O` [copper-64 labelled] is reported as 1.5 nM (Somatostatin receptor type 2 (Rattus norvegicus, UniProt P30680); binding; AR-42J cell membranes).
The Kd of `NS(=O)(=O)c1cc(C(=O)NCCCC(=O)O)c(S(=O)(=O)c2ccccc2)cc1Cl` is reported as 6.4 nM (CA12; fluorescent thermal shift; pH 7.0, 37 °C, observed).
`CC[C@H](C)[C@@H]1NC(=O)[C@H](CCC(N)=O)NC(=O)CNC(=O)[C@H]([C@@H](C)O)NC(=O)[C@H](Cc2c[nH]c3ccccc23)NC(=O)[C@H](CCCNC(=N)N)NC(=O)[C@H](C)NC(=O)[C@H](C(C)C)NC(=O)[C@H](CCCNC(=N)N)NC(=O)[C@@H]2CCCN2C(=O)[C@H](CCCNC(=N)N)NC(=O)[C@@H](Cc2c[nH]c3ccccc23)NC(=O)CSC[C@@H](C(=O)N[C@@H](CO)C(N)=O)NC(=O)[C@H](Cc2ccc(O)cc2)NC(=O)[C@H]([C@@H](C)CC)NC1=O` has a Kd of over 1000 nM (Plexin-B1 (Plxnb1, Mus musculus, UniProt Q8CJH3); no detectable affinity).
The Kd of `Cc1ncsc1-c1ccc(CNC(=O)[C@@H]2C[C@@H](O)CN2C(=O)[C@@H](NC(=O)OC(C)(C)C)C(C)(C)C)cc1` is reported as 6500 nM (VHL-elongin B-elongin C complex; binding, fluorescence polarization; added: 10 nM FAM-HIF-1α peptide with 15 nM VCB).
`COc1ccc2nc3cc(Cl)ccc3c(NCCCCNc3nc(N)nc(N)n3)c2c1` gave a Kd of over 300000 nM (RNA repeat r(CGG)2; binding).
For `O=C1Nc2ccc(I)cc2C1=Cc1cc(Br)c(O)c(Br)c1`, the Kd was 468 nM (LC3B (recombinant); small molecule microarray).
`CC(C)(C)Nc1c(F)c(S(N)(=O)=O)c(F)c(F)c1S(=O)(=O)CCc1ccccc1` gave a Kd of 67 nM (CA12; fluorescent thermal shift; pH 7.0, 37 °C, observed).
`C[n+]1cc(NC(=O)c2ccc3ccc4ccc(C(=O)Nc5cc6ccccc6[n+](C)c5)nc4c3n2)cc2ccccc21` has a Kd of 2.1 to 2.4 nM (telomeric G-quadruplex DNA; binding, surface plasmon resonance).
`CCCCCCCCO[C@@H]1O[C@H](CO)[C@H](O)[C@H](O)[C@H]1O[C@@H]1O[C@@H](C)[C@@H](O)[C@@H](O)[C@@H]1O` gave a Kd of 7000 nM (ABO (Homo sapiens, UniProt P16442, G235S/G268A/L266M/R176G); binding, isothermal titration calorimetry; added: UDP).
`O=C(C=CN1C2CCC1c1ncnc(NC3CC3)c1C2)c1ccccc1O` (stereo not drawn) has a Kd of 53 nM (SMARCA4; binding).
With `O=P(O)(O)O[C@@H]1[C@H](O)[C@H](O)[C@@H](OP(=O)(O)O)[C@H](OP(=O)(O)O)[C@H]1O` the Kd was 13 nM (IP3 receptor).
The Kd of `NS(=O)(=O)c1c(F)c(F)c(S(=O)(=O)CCO)c(N[C@H]2CCc3ccccc32)c1F` is reported as 8.3 nM (CA12; fluorescent thermal shift; pH 7.0, 37 °C, observed).
`C[C@H](NC(=O)[C@@H]1CCCN1C(=O)[C@@H]1CCCN1C(=O)[C@H](C)NC(=O)[C@@H](NC(=O)[C@H](CO)NC(=O)CNC(=O)[C@@H]1CCCN1C(=O)[C@H](C)NC(=O)[C@@H]1CCCN1C(=O)[C@@H](N)CCCNC(=N)N)[C@@H](C)O)C(=O)N[C@@H](Cc1c[nH]cn1)C(=O)NCC(=O)O` has a Kd of 234 nM (14 A monoclonal antibody; SPR).
`NS(=O)(=O)c1c(F)c(F)c(S(=O)(=O)CCO)c(NC2CCCCCCCCCCC2)c1F` gave a Kd of 42 nM (CA2; thermal shift; pH 7.0, 37 °C).
The Kd of `CC[C@H](C)[C@H](NC(=O)[C@H](N)Cc1ccc(O)cc1)C(=O)N[C@H]1CSSC[C@@H](C(=O)N(C)[C@H](C(N)=O)[C@@H](C)CC)NC(=O)[C@H](CCCNC(=N)N)NC(=O)[C@H](Cc2c[nH]cn2)NC(=O)[C@H](C)NC(=O)CN(C)C(=O)[C@H](Cc2c[nH]c3ccccc23)NC(=O)[C@H](CC(=O)O)NC(=O)[C@H](CCC(N)=O)NC(=O)[C@H](Cc2cn(C)c3ccccc23)NC(=O)[C@H](C(C)C)NC1=O` is reported as 0.5 nM (complement C3 and C3b (human, non-human primate); binding).
For `CC(C)C1=CC23CCC4C(C)(C(=O)O)CCCC4(C)C2CC1C(C(=O)O)C3C(=O)O` (stereo not drawn), the Kd was 18000 nM and 18300 nM (DBD-F; fluorescence anisotropy).
The Kd of `O=C(CC(CO)N1CCN(c2ccc(OC(F)(F)F)cc2)CC1)Nc1ccc(Cl)cc1` (stereo not drawn) is reported as 53000 nM (VDAC1 (Homo sapiens, UniProt P21796); binding).
`O=C(Nc1cccc(Br)c1)Nc1cc(Oc2ccc3nc(NC(=O)C4CC4)sc3c2)ccc1F` has a Kd of over 5000 nM (RIPK1 (Homo sapiens, UniProt Q13546)).
`NS(=O)(=O)c1c(F)c(F)c(S(=O)(=O)CCc2ccccc2)c(N2CCOCC2)c1F` has a Kd of 1.2 nM (CA2; thermal shift; pH 7.0, 37 °C).
`OC[C@H]1OC(O)[C@H](O)[C@@H](O)[C@H]1O` (stereo partly drawn) gave a Kd of 87500 nM (LecA lectin, Pseudomonas aeruginosa).
`CCc1nc2ccccc2cc1C(=O)N1CCC[C@H]1C(=O)N[C@H](CSSC[C@@H](NC(=O)[C@@H]1CCCN1C(=O)c1cc2ccccc2nc1CC)C(=O)N[C@@H](CCCCN)C(=O)NCCCN)C(=O)N[C@@H](CCCCN)C(=O)NCCCN` gave a Kd of 6700 nM (CUG repeat RNA; filter binding).
For `NS(=O)(=O)c1c(F)c(F)c(S(=O)(=O)CCc2ccccc2)c(N[C@H]2CCc3ccccc32)c1F`, the Kd was 41 nM (CA12; fluorescent thermal shift; pH 7.0, 37 °C, observed).
With `OCCn1cc(CO[C@@H]2O[C@H](CO)[C@H](O)[C@H](O)[C@H]2O)nn1` the Kd was 22000 nM (lecA (Pseudomonas aeruginosa, UniProt Q05097); ITC).
For `NS(=O)(=O)c1c(F)c(F)c(SCCO)c(NC(c2ccccc2)C(O)c2ccccc2)c1F` (stereo not drawn), the Kd was 16 nM (CA12; fluorescent thermal shift; pH 7.0, 37 °C, observed).
`O=C(O)c1cc([N+](=O)[O-])ccc1NCCCc1ccccc1` gave a Kd of 80000 nM (Cystic fibrosis transmembrane conductance regulator, gating site (CFTR, Homo sapiens, UniProt P13569); gating site binding).
For `NS(=O)(=O)c1c(F)c(F)cc(F)c1NC1CCCCCCC1`, the Kd was 720 nM (CA12; fluorescent thermal shift; pH 7.0, 37 °C, observed).
For `C[C@H](CCC(=O)O)[C@H]1CC[C@H]2[C@@H]3CC[C@@H]4CC(=O)CC[C@]4(C)[C@H]3CC[C@]12C`, the Kd was about 1100 nM (RORC (Homo sapiens, UniProt P51449); binding).
